Experimental data of several laboratories.
Parts stem from different laboratories: compare values within a part only. Substitutions count along the parent as printed.

Set 1
Target: CCNA1, cyclin fold, Cln2 fusion (human)
Method: yeast growth competition, sequencing
Matrix: yeast
Setting: weak parent motif
Relative to: not given
Direction: higher = stronger binding
Starting sequence: E2F1 docking peptide (human); PPVKRRLDLETDH; partner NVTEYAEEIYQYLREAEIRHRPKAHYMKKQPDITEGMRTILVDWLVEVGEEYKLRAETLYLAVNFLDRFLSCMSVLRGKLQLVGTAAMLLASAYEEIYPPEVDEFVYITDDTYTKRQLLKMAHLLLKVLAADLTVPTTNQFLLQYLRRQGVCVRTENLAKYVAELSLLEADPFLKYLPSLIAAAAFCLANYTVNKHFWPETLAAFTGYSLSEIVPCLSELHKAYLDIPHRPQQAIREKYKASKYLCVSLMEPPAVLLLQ
For `PPVKRRLTLETDH [D8T]`, “normalised enrichment score” read 0.786.
`PPNKRRLDLETDH [V3N]` — result for “normalised enrichment score”: 0.402.
`PSVKRRLDLETDH [P2S]` — result for “normalised enrichment score”: 0.24.
For `PPVKRRLDLEHDH [T11H]`, “normalised enrichment score” read 0.141.
`PPVKRRLDLETDI [H13I]` — result for “normalised enrichment score”: 0.597.
`PPVKRRQDLETDH [L7Q]` — result for “normalised enrichment score”: 0.241.
Under “normalised enrichment score”, `PPVKTRLDLETDH [R5T]` is recorded as 0.43.
`PPVKRRLKLETDH [D8K]` — result for “normalised enrichment score”: 0.465.
`PLVKRRLDLETDH [P2L]`: “normalised enrichment score” 0.395.
Under “normalised enrichment score”, `PPVKRRLGLETDH [D8G]` is recorded as 0.54.
`PPMKRRLDLETDH [V3M]` — result for “normalised enrichment score”: 0.191.
`PPVKRRLDLPTDH [E10P]` — result for “normalised enrichment score”: 0.316.
`PPVGRRLDLETDH [K4G]`: “normalised enrichment score” 0.239.
Under “normalised enrichment score”, `PPVKRILDLETDH [R6I]` is recorded as 0.136.

Set 2
Target: RING finger protein unkempt homolog, zinc fingers 1-6, GST-SBP tag (UNK, Homo sapiens, UniProt Q9C0B0, residues 30-357)
UniProt Q9C0B0, sequence (30-357, looked up): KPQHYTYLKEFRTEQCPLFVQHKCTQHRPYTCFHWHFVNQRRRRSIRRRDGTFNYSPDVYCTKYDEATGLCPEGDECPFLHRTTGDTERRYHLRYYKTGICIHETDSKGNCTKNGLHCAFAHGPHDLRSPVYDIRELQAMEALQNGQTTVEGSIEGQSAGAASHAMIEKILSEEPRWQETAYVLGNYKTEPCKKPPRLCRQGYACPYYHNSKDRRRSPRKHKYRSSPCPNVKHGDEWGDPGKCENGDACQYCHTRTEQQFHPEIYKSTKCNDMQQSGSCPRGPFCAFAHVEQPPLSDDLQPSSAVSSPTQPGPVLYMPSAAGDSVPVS
Method: RNA Bind-n-Seq
Form: RNA
Matrix: in vitro
Concentration: not given
Setting: RNA with constant flanks, human and mouse sites, ends assumed
Relative to: input RNA pool
Direction: higher = stronger binding
For `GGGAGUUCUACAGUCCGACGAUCGUGACCCUGAUGAUGGAUGCCACCAAUAUGCCAGCUGUCAAAGCCAUCAUAUAUCAGUAUAUGGAAGAGAUUUAUCAUAGAAUCCCCGACUCAGACCCAUCUUCUAGCAAAACAAGGCAGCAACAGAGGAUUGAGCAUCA`, the bound/input enrichment was 0.385 ratio.
`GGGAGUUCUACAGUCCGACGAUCAGUCUGGCCGUACCACUGUGGCUGCUGGCAGCGUCCCUGUUCUGCCUUCUCAGCAAAUGUUAAUAGAAUAAAAAUUUAAAAAUAAUUACAAAAACACACAAAAAUGCGUCACACAGAUACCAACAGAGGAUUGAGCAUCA` has a bound/input enrichment of 13 ratio.
The bound/input enrichment of `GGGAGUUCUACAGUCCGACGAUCGUUGCCAUGUCGGGGAAGCUAGUCCCCGGCAGCCUGGAUGACUGCACAGCGGUGCCCUGGUAUAGCAGAAAAGAGCAGUGAGCUGGAAGGUUAGAGACCGGGCCUCUUACCCUGGAACUCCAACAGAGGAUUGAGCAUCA` is reported as 3.86 ratio.
The bound/input enrichment of `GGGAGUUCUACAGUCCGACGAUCACAUUUAAGGAUUUUGUUCUUCAUCCAAGAAGUCACAAAUCAAGAGUUAAAGGUUAUCUGAGAUUAAAAAUGACUUAUUUACCUAAAAAUGGCUCAGAAGAUGAAAAUGCAGACCAGGCUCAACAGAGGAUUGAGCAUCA` is reported as 0.214 ratio.
For `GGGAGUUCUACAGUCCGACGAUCCUUUCCCCAAAUAACAAUAUUUCAGAGGCUUUGAAAAAAUUUGGUAUCUCAGCAAAUGACACUUCAAUUCUAAUUGUUUACAUUGAAGAGGGAGAAAAACAAAUAAAUCAAGAAUACCUACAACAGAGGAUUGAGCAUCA`, the bound/input enrichment was 0.305 ratio.
With `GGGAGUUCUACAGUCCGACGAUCUUCACCAAGCUGAUAAACCCCCAGGAAAACACCUGCAGCUUGGAGGAGUUUGUCCUCCAGCUGGAGCUGUCUGGGUAUAGUCCCGAAGACCUGACUGCUGCCUUGGAGAUCUUGGAAGCCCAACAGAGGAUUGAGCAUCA` the bound/input enrichment was 0.151 ratio.
With `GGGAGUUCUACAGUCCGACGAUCGAAGUUUGUAUCAACCCAUACCACUAUAAGAGAGUGGAGAGUCCAGUCUUACCUCCAGUAUUAGUGCCUCGUCAUAAUGAAUUCAAUCCACAACACAGCCUUCUGGUUCAGUUUAGGAACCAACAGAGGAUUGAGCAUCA` the bound/input enrichment was 2.92 ratio.
`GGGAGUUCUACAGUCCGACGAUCAGCGACCUCAUCCCCGCCUUCCAGAGCCUCCUCCGAGACUGCGAAGCUGAAGUCCGAGCAGCCGCUGCCCACAAAGUAAGAGAGCUUUGUGAGAACCUGCCCGCUGAAGGUAGAGAGACUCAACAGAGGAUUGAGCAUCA` has a bound/input enrichment of 0.156 ratio.
`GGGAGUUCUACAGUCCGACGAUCUUCAAAGAGAAAACCCAGCAGUGGAAAUUGCUUGGUCAAUCUCAAGAUAAUGAAAAGGAAUUAGCUGCUCUCUUCCACCUGUGGCUGGAAACCAAAGACCAGGCCUUCUGUAAGGAAAAUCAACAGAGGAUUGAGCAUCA` has a bound/input enrichment of 0.162 ratio.
The bound/input enrichment of `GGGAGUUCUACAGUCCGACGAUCUUUAUCCAGGGCGAAGCUUUGGACCCGCAGCAUGUCUGCAACCCAGCCAUUUUCAGGCUAAUAGCUCGUCAGCUUGCUAAAAUCCAUGCUAUUCAUGCGCACAAUGGCUGGAUCCCCAAACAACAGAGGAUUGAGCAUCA` is reported as 0.125 ratio.
The bound/input enrichment of `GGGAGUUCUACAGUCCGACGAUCGGCCCAGCUGUGGCUGAUAGGGUGGCGCAGAAGCAUGGCUUCCACAACCUGGGCCAGAUCUUCGGUGACUAUUACCACUUCUGGCACAGAGCAGUGACAAAGCGGUCCCUGUCGCCUCACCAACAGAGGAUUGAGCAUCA` is reported as 0.132 ratio.

Set 3
Target: Ras GTPase-activating protein-binding protein 1, C-terminal RGG region (G3BP1, Homo sapiens, UniProt Q13283)
UniProt Q13283, sequence (whole entry, looked up): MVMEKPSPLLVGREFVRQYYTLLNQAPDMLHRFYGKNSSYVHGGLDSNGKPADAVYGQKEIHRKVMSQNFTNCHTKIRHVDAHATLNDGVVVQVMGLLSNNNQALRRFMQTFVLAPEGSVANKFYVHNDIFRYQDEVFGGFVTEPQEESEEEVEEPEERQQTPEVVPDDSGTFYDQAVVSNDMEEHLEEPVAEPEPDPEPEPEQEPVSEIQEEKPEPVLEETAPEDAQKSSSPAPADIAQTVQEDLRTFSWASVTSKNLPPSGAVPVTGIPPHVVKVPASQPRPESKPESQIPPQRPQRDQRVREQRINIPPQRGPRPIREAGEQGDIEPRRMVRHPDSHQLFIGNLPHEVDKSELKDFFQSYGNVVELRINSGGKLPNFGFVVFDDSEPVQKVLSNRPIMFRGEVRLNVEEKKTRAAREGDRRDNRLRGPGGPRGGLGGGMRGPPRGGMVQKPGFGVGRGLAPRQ
Method: RNA Bind-n-Seq
Form: RNA
Matrix: in vitro
Concentration: 1 µM
Setting: whole 134-nt RNA, ends assumed
With: 150 mM KCl
Relative to: input library
Direction: higher = stronger binding
`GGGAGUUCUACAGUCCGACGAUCGUCCUGUGCUACACAUCGUAUGUACCGAAUCGGGGUUUGGGGUUUUUUUGGGGUGGGGAAAGUAUUAUGUUACGCCGUUCGGAUCUGCACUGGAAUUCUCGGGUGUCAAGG` gave a log2 enrichment of 1.69.
The log2 enrichment of `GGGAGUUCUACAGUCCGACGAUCAAGUCCUGUGCUACACAUCGUAUGUACCGAAUCGGGAGGGUUUGGGUUUUUUUGGGAAAGUAUUAUGUUACGCCGUUCGGAUCUGCACUUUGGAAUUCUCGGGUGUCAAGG` is reported as 0.517.
The log2 enrichment of `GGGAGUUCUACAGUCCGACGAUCUCCUGUGCUACACAUCGUAUGUACCGAAUCGGGUUUUUGGGAAAAAGGGAAAAAAAGGGAAAGUAUUAUGUUACGCCGUUCGGAUCUGCAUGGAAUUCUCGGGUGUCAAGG` is reported as -0.746.
`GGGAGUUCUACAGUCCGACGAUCAGUCCUGUGCUACACAUCGUAUGUACCGAAUCGGAAAAAGGAAAAAGGGAAAAAGGGGAAAGUAUUAUGUUACGCCGUUCGGAUCUGCACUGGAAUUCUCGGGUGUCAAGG` gave a log2 enrichment of -1.82.
The log2 enrichment of `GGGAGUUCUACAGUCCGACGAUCCACAGACAACACGCACCCACACAGACACAGAGGGAAGGGGUUGGGAUGGGGACAGGGUGCACAGCAGGGCGGGGUAGGACCCCAUCCCCUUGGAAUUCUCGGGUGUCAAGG` is reported as -1.16.
`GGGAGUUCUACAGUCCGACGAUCAGUCCUGUGCUACACAUCGUAUGUACCGAAUCGGGAAAAAGGGUGGGUUUUUUUGGGAAAGUAUUAUGUUACGCCGUUCGGAUCUGCACUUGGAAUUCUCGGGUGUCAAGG` gave a log2 enrichment of 0.947.
`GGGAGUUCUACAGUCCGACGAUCUCCUGUGCUACACAUCGUAUGUACCGAAUCGGGGAAAAAGGGGAAAAAGGGAAAAAGGGAAAGUAUUAUGUUACGCCGUUCGGAUCUGCAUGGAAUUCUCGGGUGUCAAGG` has a log2 enrichment of -0.356.
`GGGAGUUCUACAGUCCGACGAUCGCAAGAAGUAAAAACAAAUGGAAAUGCUUCGGAUAGUGGCAGGGGUGGGGGUUGCUAAGGAAAGGGUGGGAUGGGAGUGGGUAAAGAGUUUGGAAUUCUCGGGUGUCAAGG` has a log2 enrichment of 1.15.
The log2 enrichment of `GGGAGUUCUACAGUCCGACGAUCCAAGUCCUGUGCUACACAUCGUAUGUACCGAAUCGGGGAAGGGGAAGGGGAAGGGAAAGUAUUAUGUUACGCCGUUCGGAUCUGCACUUCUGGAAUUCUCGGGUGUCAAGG` is reported as 2.57.
`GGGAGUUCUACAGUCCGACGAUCCCUGUGCUACACAUCGUAUGUACCGAAUCGGGGAAAAAAAGGGGUUUGGGGAAAAAGGGGAAAGUAUUAUGUUACGCCGUUCGGAUCUGCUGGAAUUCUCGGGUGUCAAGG` gave a log2 enrichment of 0.955.
With `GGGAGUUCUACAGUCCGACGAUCUGGGGAGACUACGAUGACAGCGCCUUCAUGGAGCCCAGGUACCACGUCCGUGGAGAAGAUCUGGACAAGCUCCACAGAGCUGCCUGGUGGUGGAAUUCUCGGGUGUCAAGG` the log2 enrichment was -1.64.
`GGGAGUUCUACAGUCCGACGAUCUGGCCCUGGUGCCAUGCGGGGAGGAAGAGGUGGCCUCAUGGAUCGUGGUGGUCCCGGUGGAAUGUUCAGAGGUGGCCGUGGUGGAGACAGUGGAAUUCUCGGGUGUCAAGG` gave a log2 enrichment of 1.88.
`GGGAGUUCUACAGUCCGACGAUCACCAUGCAGGUGGGCAUCUUUGGGAAGUGGAAAAAGGGGGGGAUAGGGAGGGGGGUAACACUUUGGGAACAGGUGGUCCCAGGUCGUUUCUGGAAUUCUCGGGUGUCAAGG` has a log2 enrichment of -0.899.
`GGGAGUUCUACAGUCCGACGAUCAGUCCUGUGCUACACAUCGUAUGUACCGAAUCGGAAAAAAAGGAAAAAAAGGUUUGGAAAGUAUUAUGUUACGCCGUUCGGAUCUGCACUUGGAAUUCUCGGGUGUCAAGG` has a log2 enrichment of -2.53.

Further values, each from its own experiment
The fold induction of `PhoQ, residues 284 288 289 292 302 303 ALAMYF` is reported as 8.08 (PhoP, residues 12 14 15 18 19 SYFRT (Escherichia coli, UniProt P23836); Sort-seq, item: YFP reporter; E. coli; PhoQ-PhoP variant library, with: 10 µM Mg2+; relative to: high Mg2+ state, higher = stronger signaling).

For quick reference, copied from above (set 3):
The log2 enrichment of `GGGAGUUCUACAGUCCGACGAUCUCCUGUGCUACACAUCGUAUGUACCGAAUCGGGUUUUUGGGAAAAAGGGAAAAAAAGGGAAAGUAUUAUGUUACGCCGUUCGGAUCUGCAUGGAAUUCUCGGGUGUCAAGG` is reported as -0.746.
`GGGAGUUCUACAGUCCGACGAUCGUCCUGUGCUACACAUCGUAUGUACCGAAUCGGGGUUUGGGGUUUUUUUGGGGUGGGGAAAGUAUUAUGUUACGCCGUUCGGAUCUGCACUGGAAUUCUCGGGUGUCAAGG` gave a log2 enrichment of 1.69.
`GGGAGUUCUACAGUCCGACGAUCUCCUGUGCUACACAUCGUAUGUACCGAAUCGGGGAAAAAGGGGAAAAAGGGAAAAAGGGAAAGUAUUAUGUUACGCCGUUCGGAUCUGCAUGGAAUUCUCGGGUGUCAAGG` has a log2 enrichment of -0.356.
The log2 enrichment of `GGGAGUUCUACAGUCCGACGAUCCAAGUCCUGUGCUACACAUCGUAUGUACCGAAUCGGGGAAGGGGAAGGGGAAGGGAAAGUAUUAUGUUACGCCGUUCGGAUCUGCACUUCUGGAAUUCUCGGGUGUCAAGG` is reported as 2.57.
`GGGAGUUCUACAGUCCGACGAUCGCAAGAAGUAAAAACAAAUGGAAAUGCUUCGGAUAGUGGCAGGGGUGGGGGUUGCUAAGGAAAGGGUGGGAUGGGAGUGGGUAAAGAGUUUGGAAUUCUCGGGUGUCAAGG` has a log2 enrichment of 1.15.
The log2 enrichment of `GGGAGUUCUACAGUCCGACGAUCAAGUCCUGUGCUACACAUCGUAUGUACCGAAUCGGGAGGGUUUGGGUUUUUUUGGGAAAGUAUUAUGUUACGCCGUUCGGAUCUGCACUUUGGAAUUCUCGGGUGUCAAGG` is reported as 0.517.
